Published values gathered from unrelated publications.
A part holds a random share of what one study measured. Changes are numbered by the printed parent chain.

Sample 1 — method: universal PBM; molecule type: double-stranded DNA, one strand shown; medium: in vitro; tested at: not given; direction: higher = stronger binding
Target: Sal-like protein 4, full length isoform B (SALL4, Homo sapiens, UniProt Q9UJQ4-2, residues 1-616)
Notes: 8-mer, flanks averaged, mean of replicates
For `CGGCTGTA`, the E-score was -0.244.
With `CACCTTAC` the E-score was 0.0434.
With `TATGGGGA` the E-score was 0.076.
`ACCCCGAT` has an E-score of -0.161.
`CCCGAAAG` has an E-score of -0.127.
With `CCACGTAG` the E-score was -0.316.

Sample 2 — target: CCNE1, cyclin fold, Cln2 fusion (human); method: yeast growth competition, sequencing; medium: yeast; notes: weak parent motif; reference: not given; direction: higher = stronger binding
Parent: WEE1 docking peptide (human); HKTFRKLRLFDTP
`T3N` — result for “normalised enrichment score”: -0.76.
`T3Y` — result for “normalised enrichment score”: -1.9.
`K2P` — result for “normalised enrichment score”: 0.563.
`K2Q`: “normalised enrichment score” 0.838.
`R5H`: “normalised enrichment score” 1.46.
For `P13T`, “normalised enrichment score” read 1.21.

Sample 3 — method: RNA Bind-n-Seq; molecule type: RNA; medium: in vitro; tested at: 100 nM; reference: input RNA pool; direction: higher = stronger binding
Target: RING finger protein unkempt homolog, zinc fingers 1-6, SBP tag (UNK, Homo sapiens, UniProt Q9C0B0, residues 30-357)
Chain of UniProt Q9C0B0 (30-357, looked up): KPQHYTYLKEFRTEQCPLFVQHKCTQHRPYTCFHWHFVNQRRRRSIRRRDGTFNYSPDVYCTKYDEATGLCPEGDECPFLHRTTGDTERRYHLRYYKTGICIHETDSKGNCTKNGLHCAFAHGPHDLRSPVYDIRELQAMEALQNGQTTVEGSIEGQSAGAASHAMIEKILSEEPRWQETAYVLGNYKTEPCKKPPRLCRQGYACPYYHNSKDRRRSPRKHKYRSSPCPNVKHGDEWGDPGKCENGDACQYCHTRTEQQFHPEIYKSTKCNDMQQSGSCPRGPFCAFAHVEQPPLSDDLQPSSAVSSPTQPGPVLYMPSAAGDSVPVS
Notes: RNA with constant flanks, vertebrate orthologous sites, ends assumed
Shared flanks, not repeated: GGGAGUUCUACAGUCCGACGAUC … CAACAGAGGAUUGAGCAUCA
The bound/input enrichment of `UUGGGAACAGCUCUCCAAAUAGGAAUAGUAGUAAAAAAAAUAAGCAAAAUGAUAUUUGUAUAGAAAAAACAGAAGUUAAAUCAUGUAAAGUAAAUGCUACCAACCUUCCAGGUCCUAAAG` is reported as 1.32 ratio.
For `GGCAGGGCCCAGGCCCCUGUCGCUCAGAGUGGCCUAUUGGCCACUUAAGCCAGGCCAUUUUGGCUCCAUUUUUUAUUUUAACAGUGCCCUUACUACCCUGUAUAUAUGCCCGAGAUAUGG`, the bound/input enrichment was 1.31 ratio.
`GCAAUGAAAAAACAGCCCUUCUCCCAGCCCCCUUUUCACUAGGAGAUACAAAAGUUACCAUAGAAGAGCAAUUAAACUCAAUAAAUUUAUCUUUUCAGGAUGAUCCAGACUCCAGCACCA` has a bound/input enrichment of 1.41 ratio.
With `AUAAUCGCUCUAACUGUAUUCUGAAUAAAGUGUAACAUUGUGUAGCCUUUUUGUAUAAACUAGACAAAUAGAAAUGGUCCAAUUAGUUUCCUUUUUAAUAUGCUUAAAAUAAGCAGGUGG` the bound/input enrichment was 2.04 ratio.
`ACAGUCCUCUACUUAAACUGGUAUUUUCAAACAAUAGGAAGCUUUUUUUUUUUUUUACAGUUUAGUAUCUUGUUUCUACAUGGAAGACUAAACAUGCUUAUAGCUAAAUGUGGUCUUUGC` gave a bound/input enrichment of 1.19 ratio.
With `AAUAUAAGAACUCUUGCAGCCUUAGAUGUUAUAAAAAUAUAUCUGAAUUGUAAGAGUUGCUUAGCAGUUUUUUUUAAGCACUUGUUUUGGGUACAAGGCAUUUCUGAUAUAGUUUUAUAA` the bound/input enrichment was 0.346 ratio.
The bound/input enrichment of `GUGACUUUGGACGUCCGCUGUACCUGCUCGCAGAGGCUGCUUGGUGUGCGGCCCCGGCUGUGCUUUCUCUGCGUUCUCUGUGCGUCGUAGGCCUCCGCAGCCAACAUGCUCCGCCAGAUC` is reported as 0.324 ratio.

Mixed results
`PhoQ, residues 284 288 289 292 302 303 AANNSF` gave a fold induction of 11.7 (PhoP, residues 12 14 15 18 19 LHATL (Escherichia coli, UniProt P23836); Sort-seq, item: YFP reporter; E. coli; PhoQ-PhoP variant library, together with: 10 µM Mg2+; reference: high Mg2+ state, higher = stronger signaling).
